Published values of several laboratories.
Protocols differ between the studies behind these lines. ± marks the error that the study gave.
IDE: Insulin-degrading enzyme (IDE, Homo sapiens, UniProt P14735)

Structure (SMILES) | target or system | test | test system | setting | how to read | endpoint | result
O=C(/C=C/C#Cc1cccc(NS(=O)(=O)c2ccccc2)c1)NO | HBL-1 | – | – | 0.1 µM, 120 h | – | viability | 95.9%
Cc1ccccc1-c1ccc([C@H]2[C@H](CO)N3C(=O)CN(C(=O)c4ccncc4)C[C@@H]23)cc1 | IDE | enzyme activity, inhibitor, fluorogenic kinetic | – | added: Mca-RPPGFSAFK(Dnp)-OH substrate | – | EC50 | 4500 nM
Cn1cc(-c2ccc(-c3cncc(Cl)c3N3CCC4(CCNC4=O)CC3)cc2)cn1 | COLO 205 | gene expression, microarray, refers to: S100P mRNA | – | concentration not given, 2 h | baseline: untreated cells | log2 fold change | 4.48
CC(C)NCC(O)c1ccc(O)c(O)c1 (centres unmarked) | – | – | ventricular cardiomyocytes, C57BL/6 mouse | dose not given, 0.496 s | – | sarcomere length | 1.53 µm
CCCCCCc1c(C)nc2cc(OC)ccc2c1O | Plasmodium yoelii | – | 17XL | 384-well | – | IC50 | 158 ± 19 nM
CCOC(=O)Nc1cc(-c2ccc(C)c(NS(C)(=O)=O)c2)nn2c(C)nnc12 | HBL-1 | – | – | 0.1 µM, 120 h | – | viability | 70.5%
Cc1cc(=O)c(-c2ccc(Oc3cccc(C(F)(F)F)c3)cc2)c(C)[nH]1 | Plasmodium yoelii | – | 17XL | 384-well | – | IC50 | 1010 ± 63 nM
Oc1ccccc1-c1n[nH]cc1-c1ccnc2ccccc12 | GCN2 (Candida albicans) | kinase binding, MIB/MS competition | Candida albicans lysate | 10 µM | baseline: DMSO | log2 fold change | -0.25
OC[C@H]1[C@@H](c2ccc(C#Cc3ccccc3F)cc2)[C@@H]2CN(Cc3cncnc3)CCCCN12 | IDE | enzyme activity, inhibitor, fluorogenic kinetic | – | added: Mca-RPPGFSAFK(Dnp)-OH substrate | – | EC50 | 5200 nM
O=C(Nc1ccc(OC2CCN(Cc3ccccc3)C2)c(Cl)c1)c1cccs1 (centres unmarked) | Plasmodium yoelii | – | 17XL | 384-well | – | IC50 | 2620 ± 996 nM
Nc1ncn([C@H]2C[C@H](O)[C@@H](CO)O2)c(=O)n1 | HBL-1 | – | – | 1 µM, 120 h | – | viability | 31.5%
O=C(/C=C/C=C/C=C/C1CCCCC1)NC1=C[C@@](O)(/C=C/C=C/C=C/C(=O)NC2=C(O)CCC2=O)[C@@H]2O[C@@H]2C1=O | snuc2a | cell growth, inhibitor, CellTiter-Glo luminescence | – | 78 h | baseline: day 0 cell count | GI50 | 16700 nM
Cc1cc(=O)c(-c2ccc(Oc3cccc(Cl)c3)cc2)c(C)[nH]1 | Plasmodium yoelii | – | 17XL | 384-well | – | IC50 | 440 ± 314 nM
CCOC(=O)CCNc1cc(N2CCc3ccccc3CC2)nc(-c2cccnc2)n1 | HBL-1 | – | – | 1 µM, 120 h | – | viability | 100%
c1coc(-c2n[nH]cc2-c2ccnc3ccccc23)c1 | CMK2 (Candida albicans) | kinase binding, MIB/MS competition | Candida albicans lysate | 1 µM | baseline: DMSO | log2 fold change | 0.3
Nc1ncnc2c1ncn2[C@@H]1O[C@H](C[C@@H](N)CC[C@H](N)C(=O)O)[C@@H](O)[C@H]1O | HBL-1 | – | – | 0.5 µM, 120 h | – | viability | 120%
Cc1[nH]c(C)c(-c2ccc(Oc3ccc(Cl)cc3)cc2)c(=O)c1Br | Plasmodium yoelii | – | 17XL | 384-well | – | IC50 | 610 ± 144 nM
OC(CCN1CCCCC1)(c1ccccc1)C1CC2C=CC1C2 (centres unmarked) | – | resting-state EEG | healthy elderly humans | oral, 2 mg, eyes open, LS mean | – | EEG power, beta, Pz-O1 | 7.1 µV²
COc1c(C)[nH]c(C)c(-c2ccc(Oc3cccc(C(F)(F)F)c3)cc2)c1=O | Plasmodium yoelii | – | 17XL | 384-well | – | IC50 | 595 ± 163 nM
c1ccc2c(Cc3c[nH]c4ccccc34)c[nH]c2c1 | HBL-1 | – | – | 0.1 µM, 120 h | – | viability | 129%
